Published values pooled from the literature.
Each line is one published result; not all experiments were run side by side. Numbers after ± are the reported error.
Cell line: A2780

Compound	assay	conditions	how to read	measurement	result
Cc1cc(C)c(N[C](NCc2ccc(N[C](Nc3c(C(C)C)cccc3C(C)C)=[Pt-]([Cl])([Cl])[C]#[N+]c3c(C(C)C)cccc3C(C)C)cc2)=[Au][Cl])c(C)c1	cell growth or viability			IC50	> 100 µM
Oc1ccccc1-c1nn(-c2ccccn2)[n+](-c2ccccc2)n1.[Br-]	calcein-AM, measured: labile iron pool	40 µM		time to saturated calcein fluorescence	≤ 1 h
COc1ccc(CC2COC(=O)C2Cc2ccc3c(c2)OCO3)cc1OC (mixture of isomers)	annexin V/7-AAD	8.75 µM, 72 h	reference: untreated	apoptotic cells	increased
C#CCN(C(=O)OCc1ccc(B2OC(C)(C)C(C)(C)O2)cc1)[c-]1cccc1.[Fe+2].c1cc[cH-]c1	acridine orange	25 µM		lysosomal fluorescence	inactive
CC12CCC3c4ccc(OCCCOc5no[n+]([O-])c5S(=O)(=O)c5ccccc5)c(Br)c4CCC3C1CCC2O (stereo not shown)	MTT	100 nM, 24 h, with: haemoglobin 0 to 10 µM		antiproliferative activity	decreased
CCCCCCCCCCCCCCCCNC(=O)[O][Pt]([Cl])([Cl])[O]C(=O)CCC(=O)O.N.N	annexin V/PI flow cytometry	0.2 µM, 72 h		early apoptotic cells	55.9%
CN(C)C(=O)c1ccc(COC(=O)N[c-]2cccc2)cc1.[Fe+2].c1cc[cH-]c1	CM-DCFH-DA	25 µM, 2 h	reference: DMSO	total ROS level	2.2 ± 0.6 fold
[Br-].c1ccc(-c2nn(-c3ccccn3)[n+](-c3ccccc3)n2)cc1	labile iron pool, calcein-AM	40 µM, 24 h		calcein fluorescence increase	~37%
CC(C)c1cccc(C(C)C)c1N1CCN(c2c(C(C)C)cccc2C(C)C)C1=[Se].[Cl][Au]	cell growth or viability, MTT	72 h		IC50	0.6 µM
Cc1cc(C)c([N+]#[C][Pd-2]([Cl])([Cl])[C]#[N+]c2c(C)cc(C)cc2C)c(C)c1	cell growth or viability			IC50	> 100 µM
CC(C)=CCC1=C([O-])C(=O)c2ccccc2C1=O.CC(C)=CCC1=C([O-])C(=O)c2ccccc2C1=O.Cc1cc2cccnc2c2ncccc12.[Cu+2]	cell viability, MTT	48 h		IC50	0.3 ± 0.1 µM
Cc1cc(C)c(N[C](NCc2cccc(N[C](Nc3c(C(C)C)cccc3C(C)C)=[Pt-]([Cl])([Cl])[C]#[N+]c3c(C(C)C)cccc3C(C)C)c2)=[Au][Cl])c(C)c1	cell growth or viability			IC50	> 100 µM
CC(C)c1cccc(C(C)C)c1-n1ccn(-c2c(C(C)C)cccc2C(C)C)c1=[Se].[Cl][Ag]	cell growth or viability	72 h, 3D culture		IC50	21.6 µM
CC(C)c1cccc(C(C)C)c1[N+]#[C][Pd-]([Cl])([Cl])=[C](Nc1ccc(CN[C](Nc2c(C(C)C)cccc2C(C)C)=[Au][Cl])cc1)Nc1c(C(C)C)cccc1C(C)C	cell growth or viability			IC50	> 100 µM
CCCC(C)NC(=O)C(Nc1ccccc1C(=O)c1ccccc1)c1cn(C)c2ccccc12 (stereo not shown)	cell growth or viability, MTT	72 h		GI50	7 µM
CC(CCC(=O)OCc1cccc(CN(C(=O)OCc2ccc(B3OC(C)(C)C(C)(C)O3)cc2)[c-]2cccc2)c1)C1CCC2C3C(O)CC4CC(O)CCC4(C)C3CC(O)C12C.[Fe+2].c1cc[cH-]c1 (stereo not shown)	qPCR, measured: CHOP	concentration not given, 24 h		mRNA level	increased

Some of these lines once more:
Compound	assay	conditions	how to read	measurement	result
CCCCCCCCCCCCCCCCNC(=O)[O][Pt]([Cl])([Cl])[O]C(=O)CCC(=O)O.N.N	annexin V/PI flow cytometry	0.2 µM, 72 h		early apoptotic cells	55.9%
